Assay results pooled from the literature.
A part holds a random share of what one study measured. Positions count from the first letter of the parent shown.

Set 1
Target: Interferon regulatory factor 5, full length, phosphomimetic (IRF5, Homo sapiens, UniProt Q13568-2, residues 1-514, S451D/S453D/S456D/S462D)
Technique: protein-binding microarray
Form: double-stranded DNA, one strand shown
Sample: in vitro
Tested at: 940 nM top
Setting: 60-bp whole probe
Added: salmon DNA 0.4 mg/ml
Relative to: random background probes
Reading: higher = stronger binding
Shared flanks, not repeated: GCCTAGCAC … GTCTTGATTCGCTTGACGCTGCTG
Under “fitted relative affinity”, `GACGGTCTCGGTATCGGGATGTGCTAG` is recorded as 4.55 z-score.
For `GACCGACTGGGGTTTCGGGACGTGCTA`, “fitted relative affinity” read 3.09 z-score.
For `TTCGGACTGGACTATCGGTTAGTGCTA`, “fitted relative affinity” read 0.027 z-score.
Under “fitted relative affinity”, `GACGGACTGGCCACTGGGGACGTGCTA` is recorded as -0.73 z-score.
Under “fitted relative affinity”, `GTGGTTTTCATTATTGCTTCGTGCTAG` is recorded as 2.03 z-score.
`TTAGATCACAGTCTCGATTAGTGCTAG`: “fitted relative affinity” 2.19 z-score.
`GACGGTTTCGGGCCTGGGGACGTGCTA` — result for “fitted relative affinity”: 6.4 z-score.
Under “fitted relative affinity”, `GCCGGTATCGACACTGGGGACGTGCTA` is recorded as 4.4 z-score.

Set 2
Target: CCND1, cyclin fold, Cln2 fusion (human)
Technique: yeast growth competition, sequencing
Sample: yeast
Setting: weak parent motif
Relative to: not given
Reading: higher = stronger binding
Starting sequence: MICAL3 docking peptide (human); LQLRRQLSFSEDS
`LQLRRQLCFSEDS [S8C]`: “normalised enrichment score” -0.0612.
`LQLRRQGSFSEDS [L7G]` — result for “normalised enrichment score”: 0.0111.
`LQLRRQLSFGEDS [S10G]`: “normalised enrichment score” 0.698.
For `LSLRRQLSFSEDS [Q2S]`, “normalised enrichment score” read 0.668.
`LQLARQLSFSEDS [R4A]`: “normalised enrichment score” 0.976.
`LQLRRQLMFSEDS [S8M]` — result for “normalised enrichment score”: -0.12.
Under “normalised enrichment score”, `LDLRRQLSFSEDS [Q2D]` is recorded as 0.677.
`LQLRRQLSFAEDS [S10A]`: “normalised enrichment score” -0.115.

Set 3
Target: TAR DNA-binding protein 43, full length, His tag (TARDBP, Homo sapiens, UniProt Q13148, residues 1-414)
Technique: RNA Bind-n-Seq
Form: RNA
Sample: in vitro
Tested at: 20 nM
Setting: 6-mer, flanks averaged, single round
Added: 150 mM LiCl
Relative to: input library
Reading: higher = stronger binding
Under “6-mer enrichment (R)”, `UUCCAA` is recorded as 0.855.
Under “6-mer enrichment (R)”, `CUCCUA` is recorded as 0.935.
`CCCAAA`: “6-mer enrichment (R)” 0.945.
`UCGGCG`: “6-mer enrichment (R)” 0.958.
`UUCUCA` — result for “6-mer enrichment (R)”: 0.863.
Under “6-mer enrichment (R)”, `GUAUUC` is recorded as 0.914.
Under “6-mer enrichment (R)”, `UACGGA` is recorded as 0.911.
For `GGACCG`, “6-mer enrichment (R)” read 0.983.

Other studies, line by line
Starting sequence: PafA, mature enzyme, eGFP fusion (Elizabethkingia meningoseptica, UniProt Q9KJX5); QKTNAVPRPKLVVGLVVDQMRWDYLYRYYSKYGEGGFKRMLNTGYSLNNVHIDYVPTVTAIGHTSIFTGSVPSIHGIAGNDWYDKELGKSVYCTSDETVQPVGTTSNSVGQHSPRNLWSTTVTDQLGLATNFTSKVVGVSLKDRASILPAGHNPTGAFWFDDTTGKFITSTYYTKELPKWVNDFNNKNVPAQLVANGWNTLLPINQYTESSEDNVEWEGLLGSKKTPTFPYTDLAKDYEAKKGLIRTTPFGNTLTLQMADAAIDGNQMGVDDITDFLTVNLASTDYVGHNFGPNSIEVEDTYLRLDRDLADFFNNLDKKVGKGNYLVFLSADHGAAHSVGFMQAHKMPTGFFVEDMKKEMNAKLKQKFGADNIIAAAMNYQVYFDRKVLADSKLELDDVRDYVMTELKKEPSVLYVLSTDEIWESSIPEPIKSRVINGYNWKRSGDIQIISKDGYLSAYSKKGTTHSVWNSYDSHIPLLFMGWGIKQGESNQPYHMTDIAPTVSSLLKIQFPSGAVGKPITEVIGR
Under “phosphate dissociation constant”, `V122G` is recorded as 469 µM (inorganic phosphate, free oxyanion; microfluidic competitive inhibition; in vitro, cell-free expressed; not given, derived from inhibition constants, unchanged parent 615000 nM; lower = stronger binding).

For quick reference, copied from above (set 3):
`UUCUCA` — result for “6-mer enrichment (R)”: 0.863.
Under “6-mer enrichment (R)”, `GUAUUC` is recorded as 0.914.
Under “6-mer enrichment (R)”, `UACGGA` is recorded as 0.911.
For `GGACCG`, “6-mer enrichment (R)” read 0.983.
